Published values gathered from unrelated publications.
Each line is one published result; not all experiments were run side by side. ± gives the spread as reported.
HLA class I histocompatibility antigen, A alpha chain allele A*02:01: HLA class I histocompatibility antigen, A alpha chain, allele A*02:01 (Homo sapiens, UniProt P04439)
Fibroin-modulator-binding protein-1: Fibroin-modulator-binding protein-1 99-193 (Bombyx mori, UniProt Q5FBS0)

Molecule | target or system | assay | system | conditions | scale | measurement | value
AMNSLSLYI | HLA class I histocompatibility antigen, A alpha chain allele A*02:01 | peptide-MHC stability, brefeldin A chase | peptide, T2 cells |  |  | complex half-life | > 7 h
STVQLIMQL | HLA class I histocompatibility antigen, A alpha chain allele A*02:01 | conformational ELISA | peptide | concentration not given | baseline: positive control peptide, direction not given | binding score | 46.2%
ACEEQNPWARYLEWLFPTETLLLEL |  | ex vivo fluorescence imaging | peptide, BALB/c mice, 4T1 tumour-bearing, kidney | intravenous, 5 nmol, 24 h post-injection | higher = more uptake | mean fluorescence intensity | 821 ± 122 a.u.
human insulin |  | ELISA | pig, anaesthetized, serum | subcutaneous, 20 IU, -20 to +420 min |  | AUC | 1.35 ± 0.167 nM·h
Neuropeptide Y |  | RP-HPLC | HALO RP-amide column | 25 µM, acetic acid/methanol, 25 min gradient |  | retention time | 17.2 min
insulin icodec |  |  | Japanese patients with type 1 diabetes, serum | geometric mean |  | dose-normalised Cmax at steady state | 91.2 (nmol/L)/(U/kg)
KITDFGRAKL | HLA class I histocompatibility antigen, A alpha chain allele A*02:01 | conformational ELISA | peptide | concentration not given | baseline: positive control peptide, direction not given | binding score | 2.3%
pegcetacoplan |  | item: metabolism and nutrition disorders | patients with PNH | dose not given, phase Ib trial |  | number of TEAEs | 5
insulin icodec |  |  | human severe renal impairment | concentration not given |  | participants with adverse events | 50%
IGF-1 |  | IVIS imaging | mouse, non-injured, brain | intravenous, tail vein, 1 µmol/kg, Cy5.5-conjugated |  | time to peak brain accumulation | 24 h
GAACGAACGAAC (dsDNA) | Fibroin-modulator-binding protein-1 | ITC | double-stranded DNA, one strand shown |  |  | Kd | 6.31 µM
YEQDPWGVKWWY |  |  | peptide, mouse, CP model, serum | 0.154 µmol/kg, 4 weeks |  | serum ALT | no effect
adrenomedullin |  | RP-HPLC | HALO Peptide ES-C18 column | 25 µM, formic acid/methanol, 10 min gradient |  | retention time | 8.14 min
CCGACCGACCGA (dsDNA) | Fibroin-modulator-binding protein-1 | ITC | double-stranded DNA, one strand shown |  |  | Kd | 8.56 ± 0.871 µM
CAMK2A C6S/C289S (Homo sapiens) |  | chemical modification, mass spectrometry, item: Cys280 |  | 37 °C, apparent, reduced thiol |  | pKa | 7.7
insulin aspart |  | ELISA | human, adults with type 1 diabetes, up to 35 years, serum | subcutaneous, 0.2 U/kg |  | onset of appearance | 5.9 min
Ubiquitin fragment (Homo sapiens) |  | NMR, item: Lys6 |  |  |  | pKa | 10.5
human insulin |  | population PK model | healthy human | subcutaneous, 15 IU, euglycaemic glucose clamp |  | absorption rate constant 1 | 0.34 h⁻¹
insulin icodec |  | item: trough total compound | Chinese type 2 diabetes patients, serum | subcutaneous, once weekly |  | time to steady state | 3 to 4 weeks
insulin degludec |  |  | human | subcutaneous, 0.4 IU/kg, 1 FC level, single dose, reference formulation |  | apparent volume of distribution | 29.3 ± 8 L
ACEQNPIYWARYADWLFTTPLLLLDLALLVDADEGT |  | ex vivo fluorescence imaging | peptide, BALB/c mice, 4T1 tumour-bearing, liver | intravenous, 5 nmol, 2 h post-injection | higher = more uptake | mean fluorescence intensity | 1670 ± 149 a.u.
Pegcetacoplan |  | population PK model | human |  |  | clearance, typical value | 0.0117 L/h
bcp C50S/C99S (Escherichia coli) |  | UV-vis, item: Cys45 |  | reduced, folded, numbering of the source |  | pKa | 6.16
insulin aspart |  | ELISA, item: total insulin aspart | human, type 1 diabetes, serum | subcutaneous, dose not given, least squares mean |  | AUC(2 h-t) | 0.479 nM·h
RLAQWISQA | Jurkat T cells expressing 1G4 TCR | NFAT-eGFP reporter, flow cytometry | peptide | concentration not given, HLA-A*02:01 NY-ESO system |  | reporter activation | 21.6%
ACDDQNPWRAYLDLLFPTDTLLLDLLW |  | ex vivo fluorescence imaging | peptide, BALB/c mice, 4T1 tumour-bearing, kidney | intravenous, 5 nmol, 2 h post-injection | higher = more uptake | mean fluorescence intensity | 880 ± 51.2 a.u.
FKBP12 |  | co-immunoprecipitation | human RBC cytosol | DMTMM crosslinker, unit not given, together with: Band 3 peptide 1-56 bait | baseline: negative control | co-IP enrichment | 141

For quick reference, copied from above:
Molecule | target or system | assay | system | conditions | scale | measurement | value
human insulin |  | ELISA | pig, anaesthetized, serum | subcutaneous, 20 IU, -20 to +420 min |  | AUC | 1.35 ± 0.167 nM·h
ACEQNPIYWARYADWLFTTPLLLLDLALLVDADEGT |  | ex vivo fluorescence imaging | peptide, BALB/c mice, 4T1 tumour-bearing, liver | intravenous, 5 nmol, 2 h post-injection | higher = more uptake | mean fluorescence intensity | 1670 ± 149 a.u.
insulin aspart |  | ELISA, item: total insulin aspart | human, type 1 diabetes, serum | subcutaneous, dose not given, least squares mean |  | AUC(2 h-t) | 0.479 nM·h
